Measured values of several laboratories.
Each line is one published result; not all experiments were run side by side. “And” joins repeats or separate records; there may be more than shown.
Target: Serine/threonine-protein kinase Chk1 (CHEK1, Homo sapiens, UniProt O14757)

Compound | effect on | mode | method | concentration | relative to | quantity | value
C=CC(=O)N1CCCC(n2c(=O)c3ncccc3n(Cc3ccc(Oc4ccccc4)cc3)c2=O)C1 (centres unmarked) | cell-free assay |  | competition with immobilised ligand | 1 µM |  | remaining binding | 92%
CNC(=O)C1CCN(c2cc(C)c(F)cc2NC(=O)c2ccc(-c3cc(O)ccc3C)c(C)c2)CC1 | binding |  | competition with immobilised ligand | 1 µM |  | remaining binding | 99%
CNC1C[S+]2CC[S+]3CC[S+](C1)[Ru-4]321([N]=C=S)[n]2c3ccc(OC)cc3c3c4c(c5cc(F)c[n+]1c5c32)C(=O)NC4=O (centres unmarked) |  |  | KinomeScan | 0.1 µM | untreated | remaining binding | 71%
COc1ccc(O)cc1-c1c[nH]c2ncc(-c3cncc(C(=O)N(C)C)c3)cc12 | binding |  | competition with immobilised ligand | 0.2 µM |  | inhibition | 10.4%
C=CC(=O)N1Cc2nc(-c3cc(-c4cc(Cl)cnc4Cl)c(F)cc3F)n(-c3ccncn3)c2C1 | cell-free assay | inhibitor |  | 1 µM |  | inhibition | 5.3%
CNC(=O)C[C@H](Cc1ccc(C#N)cc1)NC(=O)c1cc(-c2ccc(CN[C@H](C)c3ccc(C)cc3)o2)ccc1Cl | enzyme activity | inhibitor |  | 1 µM |  | activity vs control | 112%
Cc1cccc(-c2ccc3nc(NC(=O)C4CCCO4)nn3c2)c1 (centres unmarked) | enzyme activity |  | Dundee kinase panel | 10 µM |  | remaining activity | 76%
Cc1ccc(-c2c(/C=C(\C#N)C(=O)NC(C)C)n(CCCO)c3ncnc(N)c23)cc1 | cell-free assay |  | competition with immobilised ligand | 1 µM |  | remaining binding | 100%
COCC12C(=O)NC3C4(C(OC)CC1O)C1CC5(O)C(OC)C(O)C(OC(C)=O)(C1C5OC(=O)c1ccccc1)C3(O)C(OC)C24 (centres unmarked) | kinase activity | inhibitor | ProQinase kinase profiling | 25 µM | control | remaining activity | 102% and 115%
NC(=O)C[C@H]1CCc2sc3ncnc(O[C@H]4CC[C@H](N5CCOCC5)CC4)c3c21 | enzyme activity | inhibitor |  | 10 µM |  | inhibition | 4%
COc1cc(Nc2nc(C)cc(-c3cnn4nc(OC)ccc34)n2)cc(C(F)(F)F)c1 |  | inhibitor |  | 1 µM | control | remaining activity | 97%
COc1c(Cl)cccc1Nc1c(-c2ccncc2C#C[C@@]2(C)CCCN2C(=O)/C=C/CN(C)C)[nH]c2c1C(=O)NCC2 | binding |  | competition with immobilised ligand | 3 µM |  | remaining binding | 93%
O=C(O)CCC(=O)c1cccc(NS(=O)(=O)c2c[nH]c3ncccc23)c1 | kinase activity |  | radiometric | 10 µM |  | remaining activity | 108%
Cc1cccc(-c2ccc3nc(NC(=O)C4CCOCC4)nn3c2)c1 | enzyme activity |  | Dundee kinase panel | 10 µM |  | remaining activity | 70%
CC(C)=CC1OC(C)(C)C2C=C3C(=O)C(Cl)=CC(O)C3C3C(O)C4OC4C(=O)C132 (centres unmarked) | cell-free assay |  | competition with immobilised ligand | 10 µM |  | remaining binding | 90%
CN1CCN(Cc2ccc(NC(=O)c3cccc(C#Cc4cnc(N)c5ncccc45)c3)cc2C(F)(F)F)CC1 | cell-free assay |  | competition with immobilised ligand | 50 nM |  | remaining binding | 98%
COc1ccc(NC(=O)Nc2ccc3c(c2)C(=O)N(C(C)CO)CC(C)C(CN(C)Cc2ccc4c(c2)OCO4)O3)cc1 (centres unmarked) | binding |  | competition with immobilised ligand | 10 µM |  | remaining binding | 100%
Cc1cnc2nc1Nc1cccc(c1)COC/C=C/COCc1cc(ccc1OCCN1CCOCC1)N2 | cell-free assay |  |  | 0.1 µM |  | remaining signal | 96%
Cc1nc2c(F)cc(-c3nc(Nc4ccc(CNC(=O)CCCCCCC(=O)NO)cc4)ncc3F)cc2n1C(C)C | enzyme activity | inhibitor |  | 1 µM |  | inhibition | 76%
O=C(Cc1ccc(OCc2ccccc2)cc1)NC1(C(=O)O)CCN(C(=O)c2ccc(-c3cccc(Cl)c3)cc2)CC1 | enzyme activity | inhibitor |  | 10 µM |  | activity vs control | 148%
COc1c(OCCCN2CCOCC2)ccc2c1N=C(NC(=O)c1cnc(N)nc1)N1CCN=C21 | kinase activity | inhibitor |  | 1 µM | untreated control | remaining activity | 89%
Cc1cccc(O[C@H]2CCC[C@@H](C(C)CNCc3ccncc3)C2)c1 (relative stereo) | kinase activity |  | kinome panel screening | 10 µM |  | inhibition | -9%
C=CC(=O)Nc1cccc(-c2cnc3[nH]cc(C(=O)NC(C)(C)C)c3n2)c1 | kinase activity |  |  | 0.1 µM |  | inhibition | 22% and 12%
